# Published values collected from several papers.
# Organism: Staphylococcus aureus
Compound,test,test system,conditions,MIC
CC[C@H](C)[C@H](NC(=O)[C@@H](CCCNC(=N)N)NC(=O)[C@H](CCCNC(=N)N)NC(=O)[C@@H]1CCCN1C(=O)[C@@H]1CCCN1C(=O)[C@H](CCCNC(=N)N)NC(=O)[C@@H]1CCCN1C(=O)[C@H](CCCNC(=N)N)NC(=O)[C@@H]1CCCN1C(=O)[C@H](Cc1ccccc1)NC(=O)[C@H](Cc1ccc(O)cc1)NC(=O)[C@@H]1CCCN1C(=O)[C@@H]1CCCN1C(=O)[C@H](CCCCN)NC(=O)[C@H](CC(=O)O)NC(=O)[C@@H](N)C(C)C)C(=O)N[C@@H](Cc1ccc(O)cc1)C(=O)N[C@@H](CC(N)=O)C(=O)N[C@H](CCCNC(=N)N)C(N)=O,broth microdilution,DSM 6247,"18 h, 37 °C, 25% MHB2",128 µg/mL
CC(C)CCCCCCCCC/C=C/C(=O)N[C@@H](CC(N)=O)C(=O)N[C@H]1CNC(=O)[C@@H]2CCCN2C(=O)[C@H](C(C)C)NC(=O)[C@@H](CN)NC(=O)CNC(=O)[C@H](CC(=O)O)NC(=O)CNC(=O)[C@H](CC(=O)O)NC(=O)[C@H](CC(=O)O)NC(=O)[C@H]2CCCCN2C1=O,broth microdilution,"VISA LIM strain 2, Mueller-Hinton broth, Mg2+ 10 mg/L","16 h, together with: Ca2+ 1.0 mM",8 µg/mL
CC(C)C[C@@H]1NC(=O)[C@H](CCCCN)NC(=O)C(N)CCC=CCCC(C(N)=O)NC(=O)[C@H](CCCCN)NC(=O)[C@H](CC(C)C)NC(=O)[C@H](CCCCN)NC(=O)C2CCC=CCCC(NC(=O)[C@H](CCCCN)NC1=O)C(=O)N[C@@H](CCCCN)C(=O)N1CCC[C@@H]1C(=O)NCC(=O)N[C@@H](CCCCN)C(=O)N2 (stereo partly shown),broth microdilution,"ATCC 29737, Mueller-Hinton broth","18 h, 37 °C",128 µM
C#CCOc1ccc(CN[C@@]2(C)C[C@H](O[C@H]3[C@H](Oc4c5cc6cc4Oc4ccc(cc4Cl)[C@@H](O)[C@@H](NC(=O)[C@@H](CC(C)C)NC)C(=O)N[C@@H](CC(N)=O)C(=O)N[C@H]6C(=O)N[C@H]4C(=O)N[C@H](C(=O)N[C@H](C(=O)NCC(N)=O)c6cc(O)cc(O)c6-c6cc4ccc6O)[C@H](O)c4ccc(c(Cl)c4)O5)O[C@H](CO)[C@@H](O)[C@@H]3O)O[C@@H](C)[C@H]2O)cc1OC,,MRSA USA300,,0.298 µM
CCCCCCCCCCCCCC(=O)N[C@H]1C(=O)N[C@@H](CN)C(=O)N[C@@H](CO)C(=O)N[C@@H](Cc2ccc(O)cc2)C(=O)O[C@H]1C,,SH1000,"together with: N-acetylsphingosine, molar ratio 2",1 µg/mL
CN[C@H](CC(C)C)C(=O)N[C@H]1C(=O)N[C@@H](CC(N)=O)C(=O)N[C@H]2C(=O)N[C@H]3C(=O)N[C@H](C(=O)N[C@H](C(=O)NCc4cn(CCCCC(=O)N[C@H](C(=O)N[C@@H](CCN)C(=O)N[C@H]5CCNC(=O)[C@H]([C@@H](C)O)NC(=O)[C@H](CCN)NC(=O)[C@H](CCN)NC(=O)[C@H](CC(C)C)NC(=O)[C@@H](CC(C)C)NC(=O)[C@H](CCN)NC5=O)[C@@H](C)O)nn4)c4cc(O)cc(O)c4-c4cc3ccc4O)[C@H](O)c3ccc(c(Cl)c3)Oc3cc2cc(c3O[C@@H]2O[C@H](CO)[C@@H](O)[C@H](O)[C@H]2O[C@H]2C[C@](C)(N)[C@H](O)[C@H](C)O2)Oc2ccc(cc2Cl)[C@H]1O,,NRS402 VISA,,3 µM
Cc1ccc2[nH]c3c(c2c1)CCCC3NCCc1ccc(O)cc1 (stereo not shown),broth microdilution,SG511,,16 µg/mL
CC[C@H](C)[C@H](NC(=O)[C@@H](CCC(=O)O)NC(=O)[C@H](CC(C)C)NC(=O)c1cccc(C(=O)O)n1)C(=O)N[C@H]1CCCCNC(=O)[C@H](CC(N)=O)NC(=O)[C@@H](CC(=O)O)NC(=O)[C@H](Cc2c[nH]cn2)NC(=O)[C@@H](Cc2ccccc2)NC(=O)[C@H]([C@@H](C)CC)NC(=O)[C@@H](CCCN)NC1=O,,ATCC 29213 methicillin-susceptible,"18 h, 37 °C, 0.3 mM ZnSO4 LB",> 64 µg/mL
C=C1NC(=O)C2CSCC3NC(=O)C(CSC(C)C(NC(=S)C(Cc4cnc[nH]4)NC(=O)c4csc(C(C)NC(C)=O)n4)C(=O)N[C@H](CC(C)C(=O)NC(=O)CC(C(=O)O)NC(=O)C(C)NC3=O)C(=O)N2)NC(=O)[C@@H]2CCCN2C(=O)[C@@H](CC(C)C)NC1=O (stereo partly shown),bacterial growth,ATCC 29213,,> 32 µg/mL
CN[C@H](CC(C)C)C(=O)N[C@H]1C(=O)N[C@@H](CC(N)=O)C(=O)N[C@H]2C(=O)N[C@H]3C(=O)N[C@H](C(=O)N[C@H](C(=O)NCc4cn(CC(=O)N[C@H](C(=O)N[C@@H](CCN)C(=O)N[C@H]5CCNC(=O)[C@H]([C@@H](C)O)NC(=O)[C@H](CCN)NC(=O)[C@H](CCN)NC(=O)[C@H](CC(C)C)NC(=O)[C@@H](CC(C)C)NC(=O)[C@H](CCN)NC5=O)[C@@H](C)O)nn4)c4cc(O)cc(O)c4-c4cc3ccc4O)[C@H](O)c3ccc(c(Cl)c3)Oc3cc2cc(c3O[C@@H]2O[C@H](CO)[C@@H](O)[C@H](O)[C@H]2O[C@H]2C[C@](C)(N)[C@H](O)[C@H](C)O2)Oc2ccc(cc2Cl)[C@H]1O,,MSSA ATCC 29213,,0.1 µM
CCCCCCC#Cc1cncc(-c2nnc(SCc3cc([N+](=O)[O-])cc([N+](=O)[O-])c3)n2C)c1,broth microdilution,Mu50 MRSA VISA,"18 to 24 h, 37 °C",> 64 µg/mL
CC[C@H](C)[C@H](NC(=O)[C@H](CCCNC(=N)N)NC(=O)[C@@H]1CCCN1C(=O)[C@H](CCCNC(=N)N)NC(=O)[C@H](Cc1ccccc1)NC(=O)[C@H](Cc1c[nH]cn1)NC(=O)[C@H](CCCNC(=N)N)NC(=O)[C@H](CC(C)C)NC(=O)[C@H](CCCCN)NC(=O)CNC(=O)[C@H](CC(C)C)NC(=O)[C@H](Cc1ccccc1)NC(=O)[C@H](CCCNC(=N)N)NC(=O)CNC(=O)[C@H](Cc1ccccc1)NC(=O)[C@H](CCCNC(=N)N)NC(=O)CNC(=O)[C@H](CCCNC(=N)N)NC(=O)[C@H](CCC(N)=O)NC(=O)[C@@H](NC(=O)[C@@H](N)CC(C)C)[C@@H](C)CC)C(=O)N[C@@H](CCCCN)C(=O)N[C@@H](Cc1ccccc1)C(=O)N[C@@H](CCCCN)C(=O)NCC(=O)N[C@@H](CCCCN)C(=O)N[C@@H](C)C(=O)NCC(=O)N[C@@H](Cc1c[nH]c2ccccc12)C(=O)N[C@H](C(=O)N[C@H](C(=O)NCC(=O)O)C(C)C)[C@@H](C)O,broth microdilution,ATCC 25923,,0.94 log10 µg/mL
COc1ccc2ccc(O)c(/C=N/[C@H]3CCCC[C@H]3/N=C/c3c(C)cccc3O)c2c1,"bacterial growth, broth microdilution",vancomycin-intermediate,,> 40 µM
